Published values of several laboratories.
A part holds a random share of what one study measured.

Series 1 — technique: protein-binding microarray; form: double-stranded DNA, one strand shown; matrix: in vitro; tested at: 2540 nM top; notes: 60-bp whole probe; with: salmon DNA 0.4 mg/ml; reference: random background probes; reading: higher = stronger binding
Target: Interferon regulatory factor 3, full length, phosphomimetic (IRF3, Homo sapiens, UniProt Q14653, residues 1-427, S386D/S396D/S398D/S402D/T404D/S405D)
Target sequence (chain): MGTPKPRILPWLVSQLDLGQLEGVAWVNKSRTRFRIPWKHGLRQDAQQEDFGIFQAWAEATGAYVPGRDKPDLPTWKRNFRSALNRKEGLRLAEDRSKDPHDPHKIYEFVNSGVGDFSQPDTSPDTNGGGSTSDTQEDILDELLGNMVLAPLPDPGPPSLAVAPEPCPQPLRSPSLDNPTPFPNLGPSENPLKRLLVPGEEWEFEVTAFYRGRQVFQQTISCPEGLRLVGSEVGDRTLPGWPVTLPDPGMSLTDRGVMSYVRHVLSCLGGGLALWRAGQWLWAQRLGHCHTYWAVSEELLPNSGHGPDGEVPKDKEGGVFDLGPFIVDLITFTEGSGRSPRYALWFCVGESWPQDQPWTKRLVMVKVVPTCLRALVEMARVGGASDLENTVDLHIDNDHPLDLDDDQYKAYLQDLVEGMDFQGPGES
| Strand | fitted relative affinity [z-score] |
| --- | --- |
| GCCTAGCACTTAGGTCTCGGACAGGGTTAGTGCTAGGTCTTGATTCGCTTGACGCTGCTG | -0.575 |
| GCCTAGCACTCAACTAGGGAATTTAGAACTGTGCTAGTCTTGATTCGCTTGACGCTGCTG | -0.129 |
| GCCTAGCACTTAGATTTCAGACTGGACTAGTGCTAGGTCTTGATTCGCTTGACGCTGCTG | 0.542 |
| GCCTAGCACTTAGGATTCCTTCTCCTTTAGTGCTAGGTCTTGATTCGCTTGACGCTGCTG | 5.36 |

Series 2 — technique: aptamer microarray, sandwich; form: DNA with 2'F-ANA; matrix: in vitro; tested at: 200 nM; with: Cy3 exosite-II aptamer, 400 nM; reading: higher = stronger binding; strand: GGTTGGTGTGGTTGG
Target: Prothrombin, mature alpha-thrombin (F2, Homo sapiens, UniProt P00734)
Notes: whole 15-mer aptamer, many near background
| Modification | mean fluorescence intensity [a.u.] |
| --- | --- |
| 2'F-ANA at 1 2 6 7 8 10 11 12 | 65.2 |
| 2'F-ANA at 1 2 4 7 9 10 14 | 43.4 |
| 2'F-ANA at 2 3 5 6 7 8 9 10 11 12 13 14 | 52.6 |
| 2'F-ANA at 1 6 10 13 | 53.5 |
| 2'F-ANA at 1 2 4 11 13 | 78.5 |
| 2'F-ANA at 1 2 8 13 14 15 | 56.8 |

Series 3 — technique: universal PBM; form: double-stranded DNA, one strand shown; matrix: in vitro; tested at: 600 nM; reading: higher = stronger binding
Target: Sal-like protein 4, full length isoform A (SALL4, Homo sapiens, UniProt Q9UJQ4, residues 1-1053)
Sequence of UniProt Q9UJQ4 (whole entry, looked up): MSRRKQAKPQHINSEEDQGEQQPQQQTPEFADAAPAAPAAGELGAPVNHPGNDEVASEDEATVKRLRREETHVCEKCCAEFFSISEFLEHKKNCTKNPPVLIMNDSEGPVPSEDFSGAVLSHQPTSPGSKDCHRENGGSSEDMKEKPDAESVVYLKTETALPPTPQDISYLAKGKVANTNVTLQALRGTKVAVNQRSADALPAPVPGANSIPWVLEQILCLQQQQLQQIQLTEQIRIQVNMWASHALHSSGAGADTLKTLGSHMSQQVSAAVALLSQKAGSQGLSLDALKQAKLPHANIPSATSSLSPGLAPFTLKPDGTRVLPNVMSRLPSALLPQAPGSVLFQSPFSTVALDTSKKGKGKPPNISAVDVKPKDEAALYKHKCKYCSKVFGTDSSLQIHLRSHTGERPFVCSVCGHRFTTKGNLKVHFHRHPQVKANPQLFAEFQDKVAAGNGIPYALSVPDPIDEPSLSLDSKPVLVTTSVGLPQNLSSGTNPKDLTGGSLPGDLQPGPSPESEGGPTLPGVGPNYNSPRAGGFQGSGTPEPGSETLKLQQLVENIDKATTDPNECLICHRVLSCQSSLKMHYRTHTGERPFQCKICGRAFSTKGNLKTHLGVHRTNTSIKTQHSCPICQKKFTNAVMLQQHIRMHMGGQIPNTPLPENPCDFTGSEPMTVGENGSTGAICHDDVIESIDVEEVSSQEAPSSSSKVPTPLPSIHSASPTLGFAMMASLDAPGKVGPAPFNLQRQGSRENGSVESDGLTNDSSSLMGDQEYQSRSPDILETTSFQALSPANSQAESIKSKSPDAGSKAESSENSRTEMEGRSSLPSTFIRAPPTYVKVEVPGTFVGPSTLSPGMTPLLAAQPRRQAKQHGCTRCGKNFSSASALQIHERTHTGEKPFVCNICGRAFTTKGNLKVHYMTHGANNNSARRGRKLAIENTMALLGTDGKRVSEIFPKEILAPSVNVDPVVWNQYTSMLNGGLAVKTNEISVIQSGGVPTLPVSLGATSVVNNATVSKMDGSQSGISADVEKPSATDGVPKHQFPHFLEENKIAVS
Notes: 8-mer, flanks averaged, mean of replicates
| Strand | E-score |
| --- | --- |
| ACCAGATC | -0.251 |
| ATAGGGAG | 0.012 |
| CCCATTAA | 0.128 |
| CTAACGTA | 0.283 |
| GCGATATA | 0.159 |
| CATCGTCA | 0.0587 |

Other studies, line by line
| Molecule | target | test | system | conditions | how to read | endpoint | value |
| --- | --- | --- | --- | --- | --- | --- | --- |
| PhoQ, residues 284 288 289 292 302 303 ALAMYF | PhoP, residues 12 14 15 18 19 SQCLL (Escherichia coli, UniProt P23836) | Sort-seq, refers to: YFP reporter | E. coli | PhoQ-PhoP variant library, with: 10 µM Mg2+ | reference: high Mg2+ state, higher = stronger signaling | fold induction | 1.47 |

Excerpt of the above (series 2):
| Modification | mean fluorescence intensity [a.u.] |
| --- | --- |
| 2'F-ANA at 1 6 10 13 | 53.5 |
| 2'F-ANA at 2 3 5 6 7 8 9 10 11 12 13 14 | 52.6 |
